Measured values of several laboratories.
± marks the error that the study gave.

With `O=C(CCCCCCC(=O)Nc1ccc(I)cc1)NO` the viability was 88.6% (HBL-1; 0.1 µM, 120 h).
`Cn1cc(-c2ccc(-c3cncc(Cl)c3N3CCC4(CCNC4=O)CC3)cc2)cn1` — result for “log2 fold change”: 2.11 (COLO 205; gene expression, microarray, measured: ATF3 mRNA; concentration not given, 6 h; reference: untreated cells).
With `Cc1cc(O)c(-c2ccc(Sc3ccc(Cl)cc3)cc2)c(C)n1` the IC50 was 632 ± 89 nM (Plasmodium yoelii; 17XL; 384-well).
For `CC(C)NCC(O)c1ccc(O)c(O)c1` (stereo not drawn), the sarcomere length was 1.53 µm (ventricular cardiomyocytes, C57BL/6 mouse; dose not given, 0.496 s).
`Cc1cc(=O)c(-c2ccc(Oc3cccc(Cl)c3)cc2)c(C)[nH]1` has an IC50 of 440 ± 314 nM (Plasmodium yoelii; 17XL; 384-well).
`c1coc(-c2n[nH]cc2-c2ccnc3ccccc23)c1`: “log2 fold change” -0.31 (GCN2 (Candida albicans); kinase binding, MIB/MS competition; Candida albicans lysate; 10 µM; reference: DMSO).
For `Cc1cc(C)c(CNC(=O)c2cc(-c3ccc(CN4CCOCC4)cc3)cc3c2cnn3C2CCCC2)c(=O)[nH]1`, the viability was 119% (HBL-1; 0.1 µM, 120 h).
`Cc1[nH]c(C)c(-c2ccc(CCc3cccc(C(F)(F)F)c3)nc2)c(=O)c1Cl` gave an IC50 of 100 ± 29 nM (Plasmodium yoelii; 17XL; 384-well).
`O=C(NO)c1cccc(C(=O)NCCc2ccccc2)c1` has a viability of 99.5% (HBL-1; 1 µM, 120 h).
Under “log2 fold change”, `Oc1ccccc1-c1n[nH]cc1-c1ccnc2ccccc12` is recorded as 0.32 (KIC1 (Candida albicans); kinase binding, MIB/MS competition; Candida albicans lysate; 10 µM; reference: DMSO).
The viability of `O=C(CCCCCCC(=O)NO)NO` is reported as 144% (HBL-1; 0.5 µM, 120 h).
With `Cc1[nH]c(C)c(-c2ccc(OCCCCSc3ccncc3)cc2)c(=O)c1Br` the IC50 was 708 ± 289 nM (Plasmodium yoelii; 17XL; 384-well).

For quick reference, copied from above:
`Cn1cc(-c2ccc(-c3cncc(Cl)c3N3CCC4(CCNC4=O)CC3)cc2)cn1` — result for “log2 fold change”: 2.11 (COLO 205; gene expression, microarray, measured: ATF3 mRNA; concentration not given, 6 h; reference: untreated cells).
With `Cc1cc(O)c(-c2ccc(Sc3ccc(Cl)cc3)cc2)c(C)n1` the IC50 was 632 ± 89 nM (Plasmodium yoelii; 17XL; 384-well).
